Published values gathered from unrelated publications.
PPARA ligand-binding domain: Peroxisome proliferator-activated receptor alpha, ligand-binding domain (PPARA, Homo sapiens, UniProt Q07869)
UniProt Q07869, sequence (whole entry, looked up): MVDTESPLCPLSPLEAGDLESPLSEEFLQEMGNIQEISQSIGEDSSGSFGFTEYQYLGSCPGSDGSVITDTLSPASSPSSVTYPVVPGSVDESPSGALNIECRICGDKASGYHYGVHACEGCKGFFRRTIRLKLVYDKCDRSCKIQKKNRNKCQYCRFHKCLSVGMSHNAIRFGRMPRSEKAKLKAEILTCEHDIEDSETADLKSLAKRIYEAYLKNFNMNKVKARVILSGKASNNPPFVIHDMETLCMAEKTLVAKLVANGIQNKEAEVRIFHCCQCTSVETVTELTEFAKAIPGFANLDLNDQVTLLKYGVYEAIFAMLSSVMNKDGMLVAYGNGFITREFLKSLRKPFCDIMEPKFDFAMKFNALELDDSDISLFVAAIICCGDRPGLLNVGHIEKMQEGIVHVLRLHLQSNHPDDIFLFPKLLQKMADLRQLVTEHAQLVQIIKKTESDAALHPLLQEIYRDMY
GBA2: Beta-glucosidase (GBA2, Homo sapiens, UniProt Q9HCG7)
UniProt Q9HCG7, sequence (whole entry, looked up): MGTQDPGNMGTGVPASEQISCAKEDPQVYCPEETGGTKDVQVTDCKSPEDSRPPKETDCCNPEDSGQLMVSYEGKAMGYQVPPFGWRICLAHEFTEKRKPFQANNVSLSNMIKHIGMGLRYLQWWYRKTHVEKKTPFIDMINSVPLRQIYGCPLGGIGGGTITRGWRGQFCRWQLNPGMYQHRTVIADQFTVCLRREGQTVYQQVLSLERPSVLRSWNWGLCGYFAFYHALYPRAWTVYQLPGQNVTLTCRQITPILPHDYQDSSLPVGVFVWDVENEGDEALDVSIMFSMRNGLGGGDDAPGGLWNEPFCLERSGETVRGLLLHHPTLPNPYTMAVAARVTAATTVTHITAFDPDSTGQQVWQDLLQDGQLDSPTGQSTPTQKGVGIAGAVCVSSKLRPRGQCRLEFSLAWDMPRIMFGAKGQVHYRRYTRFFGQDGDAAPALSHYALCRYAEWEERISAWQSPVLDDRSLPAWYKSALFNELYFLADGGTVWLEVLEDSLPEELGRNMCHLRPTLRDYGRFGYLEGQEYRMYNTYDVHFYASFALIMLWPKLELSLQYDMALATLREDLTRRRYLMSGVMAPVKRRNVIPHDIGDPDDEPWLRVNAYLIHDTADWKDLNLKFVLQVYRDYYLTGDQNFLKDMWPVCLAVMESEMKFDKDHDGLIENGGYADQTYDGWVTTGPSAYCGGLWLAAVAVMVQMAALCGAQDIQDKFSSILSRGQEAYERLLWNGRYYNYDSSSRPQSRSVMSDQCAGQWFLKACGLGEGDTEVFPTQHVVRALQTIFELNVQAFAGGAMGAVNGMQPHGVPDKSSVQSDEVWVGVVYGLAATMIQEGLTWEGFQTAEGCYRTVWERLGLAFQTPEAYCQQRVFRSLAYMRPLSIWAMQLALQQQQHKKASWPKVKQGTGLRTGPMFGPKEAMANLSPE
Chymotrypsinogen A: Chymotrypsinogen A (Bos taurus, UniProt P00766)
UniProt Q8IXJ6, sequence (whole entry, looked up): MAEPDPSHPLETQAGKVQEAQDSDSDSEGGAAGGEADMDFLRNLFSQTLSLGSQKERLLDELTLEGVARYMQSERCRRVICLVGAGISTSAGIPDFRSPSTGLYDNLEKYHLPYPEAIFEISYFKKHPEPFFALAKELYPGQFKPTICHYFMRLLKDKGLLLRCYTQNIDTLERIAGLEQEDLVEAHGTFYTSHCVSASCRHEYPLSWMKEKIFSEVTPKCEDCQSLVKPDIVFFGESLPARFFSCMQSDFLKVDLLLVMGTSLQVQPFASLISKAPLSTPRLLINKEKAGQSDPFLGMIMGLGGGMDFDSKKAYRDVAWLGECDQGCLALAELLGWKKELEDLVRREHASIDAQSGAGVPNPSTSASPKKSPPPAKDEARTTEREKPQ
UniProt P41743, sequence (whole entry, looked up): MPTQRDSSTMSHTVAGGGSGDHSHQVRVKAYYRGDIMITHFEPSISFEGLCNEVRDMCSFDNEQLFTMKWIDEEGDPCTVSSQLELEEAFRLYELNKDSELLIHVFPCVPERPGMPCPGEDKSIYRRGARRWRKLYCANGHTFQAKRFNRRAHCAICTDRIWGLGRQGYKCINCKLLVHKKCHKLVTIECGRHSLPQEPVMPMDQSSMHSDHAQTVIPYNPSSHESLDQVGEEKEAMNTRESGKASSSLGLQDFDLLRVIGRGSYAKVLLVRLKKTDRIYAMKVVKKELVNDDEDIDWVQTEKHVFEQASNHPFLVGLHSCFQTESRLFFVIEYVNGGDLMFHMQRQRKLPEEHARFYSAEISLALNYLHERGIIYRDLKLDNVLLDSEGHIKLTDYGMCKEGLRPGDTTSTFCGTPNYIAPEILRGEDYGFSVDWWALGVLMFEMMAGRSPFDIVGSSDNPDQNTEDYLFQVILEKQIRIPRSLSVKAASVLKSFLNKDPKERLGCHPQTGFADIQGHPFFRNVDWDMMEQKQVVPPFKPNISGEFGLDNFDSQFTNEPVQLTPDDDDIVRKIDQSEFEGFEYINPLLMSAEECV
UniProt P42229, sequence (whole entry, looked up): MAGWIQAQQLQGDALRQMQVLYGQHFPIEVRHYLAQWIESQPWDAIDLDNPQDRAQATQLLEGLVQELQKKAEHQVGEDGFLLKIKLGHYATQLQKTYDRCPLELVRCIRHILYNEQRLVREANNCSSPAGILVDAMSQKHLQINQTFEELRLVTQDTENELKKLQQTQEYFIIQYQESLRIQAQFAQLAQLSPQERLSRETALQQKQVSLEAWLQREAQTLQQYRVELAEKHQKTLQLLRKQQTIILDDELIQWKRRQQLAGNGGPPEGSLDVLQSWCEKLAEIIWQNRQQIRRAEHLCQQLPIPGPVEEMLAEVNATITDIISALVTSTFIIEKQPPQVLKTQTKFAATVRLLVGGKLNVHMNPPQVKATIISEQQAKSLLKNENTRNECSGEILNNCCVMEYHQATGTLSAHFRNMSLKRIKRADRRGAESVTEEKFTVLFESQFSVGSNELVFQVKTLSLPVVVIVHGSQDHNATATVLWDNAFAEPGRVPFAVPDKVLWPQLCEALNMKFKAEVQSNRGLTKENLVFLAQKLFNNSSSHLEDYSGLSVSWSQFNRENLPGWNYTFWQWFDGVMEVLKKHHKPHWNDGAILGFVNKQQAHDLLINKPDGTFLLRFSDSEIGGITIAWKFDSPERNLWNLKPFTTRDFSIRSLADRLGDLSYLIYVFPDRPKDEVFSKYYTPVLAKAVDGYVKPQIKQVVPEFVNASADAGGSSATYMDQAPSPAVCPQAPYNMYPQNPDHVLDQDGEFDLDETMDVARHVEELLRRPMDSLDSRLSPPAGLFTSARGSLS
UniProt P48736, sequence (whole entry, looked up): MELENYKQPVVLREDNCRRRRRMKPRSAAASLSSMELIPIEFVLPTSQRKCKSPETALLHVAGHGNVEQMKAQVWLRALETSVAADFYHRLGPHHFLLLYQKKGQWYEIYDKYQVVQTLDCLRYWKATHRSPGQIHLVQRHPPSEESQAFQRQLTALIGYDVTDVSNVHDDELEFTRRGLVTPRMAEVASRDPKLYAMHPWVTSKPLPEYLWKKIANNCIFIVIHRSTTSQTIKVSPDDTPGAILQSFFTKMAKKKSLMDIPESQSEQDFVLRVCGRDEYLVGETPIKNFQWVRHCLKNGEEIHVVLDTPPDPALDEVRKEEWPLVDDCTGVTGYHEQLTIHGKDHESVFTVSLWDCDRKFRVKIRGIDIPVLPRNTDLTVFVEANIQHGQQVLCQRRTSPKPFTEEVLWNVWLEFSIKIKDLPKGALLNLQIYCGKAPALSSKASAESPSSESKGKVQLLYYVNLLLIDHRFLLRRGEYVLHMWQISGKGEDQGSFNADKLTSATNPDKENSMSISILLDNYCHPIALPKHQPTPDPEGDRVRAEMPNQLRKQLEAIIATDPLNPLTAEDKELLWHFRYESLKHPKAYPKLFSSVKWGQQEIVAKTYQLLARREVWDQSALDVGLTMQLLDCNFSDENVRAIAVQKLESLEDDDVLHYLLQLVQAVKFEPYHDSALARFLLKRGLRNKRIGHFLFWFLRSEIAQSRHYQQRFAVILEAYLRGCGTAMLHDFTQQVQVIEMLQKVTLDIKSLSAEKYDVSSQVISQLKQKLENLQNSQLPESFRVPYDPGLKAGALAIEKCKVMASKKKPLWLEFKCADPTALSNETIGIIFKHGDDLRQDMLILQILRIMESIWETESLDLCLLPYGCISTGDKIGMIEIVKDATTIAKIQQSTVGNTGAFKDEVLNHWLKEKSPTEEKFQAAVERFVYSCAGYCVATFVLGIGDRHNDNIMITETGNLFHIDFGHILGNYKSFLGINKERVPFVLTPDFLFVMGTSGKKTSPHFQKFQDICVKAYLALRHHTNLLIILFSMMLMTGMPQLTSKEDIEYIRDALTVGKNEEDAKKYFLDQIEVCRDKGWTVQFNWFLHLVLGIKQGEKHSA
UniProt P10997, sequence (whole entry, looked up): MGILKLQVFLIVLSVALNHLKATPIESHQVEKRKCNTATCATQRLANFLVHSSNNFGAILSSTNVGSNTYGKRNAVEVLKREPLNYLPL
UniProt P30874, sequence (whole entry, looked up): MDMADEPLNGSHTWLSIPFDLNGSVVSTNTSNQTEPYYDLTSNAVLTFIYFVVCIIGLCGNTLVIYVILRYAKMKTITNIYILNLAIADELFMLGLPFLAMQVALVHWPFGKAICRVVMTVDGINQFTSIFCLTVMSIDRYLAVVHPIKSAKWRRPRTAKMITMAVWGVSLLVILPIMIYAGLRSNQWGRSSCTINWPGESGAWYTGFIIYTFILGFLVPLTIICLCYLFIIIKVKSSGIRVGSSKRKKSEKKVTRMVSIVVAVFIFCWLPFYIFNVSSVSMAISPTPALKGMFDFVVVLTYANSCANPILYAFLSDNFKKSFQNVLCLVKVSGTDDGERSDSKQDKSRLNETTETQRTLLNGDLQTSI

With CN(C)c1ccc(/N=N/c2ccc(NC(=O)CN)cc2)cc1 the IC50 was 460 nM (IAPP (Homo sapiens, UniProt P10997); ThT displacement, ThT fluorescence; pH 7.4, preformed target-ThT complex, added: 5 µM ThT).
For C[C@@H](O)[C@@H]1NC(=O)[C@H](CCCCN)NC(=O)[C@@H](Cc2c[nH]c3ccccc23)NC(=O)[C@H](Cc2ccc(NC(N)=O)cc2)NC(=O)[C@H](NC(=O)[C@@H](N)Cc2ccc(Cl)cc2)CSSC[C@@H](C(=O)N[C@@H](Cc2ccc3ccccc3c2)C(N)=O)NC1=O, the IC50 was less than 10 nM (SSTR2 (Homo sapiens, UniProt P30874); ligand displacement, radioligand).
Cc1nn(-c2cccc(N)c2)c(=O)c2cnc(Nc3ccc(N4CCNCC4)cc3)nc12 has an IC50 of greater than 10000 nM (PRKCI (Homo sapiens, UniProt P41743); enzyme activity, inhibitor).
With Cc1c(Cc2ccc(OC(C)(C)C(=O)O)cc2)c2ccc(C(=O)N[C@@H](C)c3cccc(C(C)C)c3)cc2n1C the IC50 was 630 nM (PPARA ligand-binding domain; reporter gene, luciferase reporter; HEK293T, Gal4-PPARα LBD).
For OC[C@H]1[C@@H](O)[C@H](O)[C@@H](O)CN1CCCCCOCc1ccc2ccccc2c1, the IC50 was 1 nM (GBA2; inhibitor, 4MU-β-D-glucopyranoside; HEK293T homogenates overexpressing GBA2).
For COc1ccc2c(c1)N(C1=C(c3ccc(F)cc3)C(=O)NC1=O)CC2, the IC50 was greater than 151000 nM (Sensor histidine kinase AirS (Staphylococcus aureus, UniProt Q2FX96); autophosphorylation, inhibitor, BODIPY-FL-ATPγS competition).
Cc1cc(C)c(S(=O)(=O)N(CC(=O)O)c2ccc(Nc3ccnc(N4CCCC4)n3)cc2)c(C)c1 has an IC50 of greater than 100000 nM (CDK9 (Homo sapiens, UniProt P50750); enzyme activity, inhibitor).
The IC50 of CN(CC(O)c1ccccc1)c1ccc(Cl)cc1NC(=O)Nc1cnc(C#N)cn1 (stereo not shown) is reported as 423 nM (CHEK1 (Homo sapiens, UniProt O14757); enzyme activity, inhibitor).
The IC50 of Cc1c(Cc2ccc(OC(C)(C)C(=O)O)cc2)c2ccc(C(=O)N[C@@H](C)c3ccc(C(C)C)cc3)cc2n1C is reported as 660 nM (PPARA ligand-binding domain; reporter gene, luciferase reporter; HEK293T, Gal4-PPARα LBD).
With O=C(Nc1cccnc1)c1ccccc1NC(=O)C(C(F)(F)F)C(F)(F)F the IC50 was 6200 nM (Chymotrypsinogen A; enzyme activity, inhibitor, fluorescence).
With N#Cc1ccc(-c2ccc(COCCCCCN3C[C@H](O)[C@@H](O)[C@H](O)[C@H]3CO)cc2)cc1 the IC50 was 3 nM (GBA2; inhibitor, 4MU-β-D-glucopyranoside; HEK293T homogenates overexpressing GBA2).
With O=C(Nc1ccc(F)c(Cl)c1)C(C(F)(F)F)C(F)(F)F the IC50 was 1200 nM (Chymotrypsinogen A; enzyme activity, inhibitor, fluorescence).
With Cc1cc(C)nc(SCC(=O)Nc2ncc(Cc3cccc(OCc4cn(Cc5ccc(C#N)cc5)nn4)c3)s2)n1 the IC50 was 151 nM (SIRT2 (Homo sapiens, UniProt Q8IXJ6); enzyme activity, inhibitor, fluorescence).
With OC[C@@H]1[C@@H](O)[C@H](O)[C@@H](O)CN1CCCCCOCC1CCCCC1 the IC50 was 4 nM (GBA2; inhibitor, 4MU-β-D-glucopyranoside; HEK293T homogenates overexpressing GBA2).
With Cc1ccc(CN2C3(NC(c4ccc(C)cc4)C24C(=O)Nc2ccccc24)C(=O)Nc2ccccc23)cc1 (stereo not shown) the IC50 was 50.9 nM (PIK3CG (Homo sapiens, UniProt P48736); enzyme activity, inhibitor, ADP detection).
With Cc1c(Cc2ccc(Cl)c(OC(C)C(=O)O)c2)c2ccc(C(=O)NC(C)c3cc(F)cc(C(C)(C)C)c3)cc2n1C (stereo not shown) the IC50 was greater than 100000 nM (PPARA ligand-binding domain; reporter gene, luciferase reporter; HEK293T, Gal4-PPARα LBD).
With O=C(COc1ccc2ccccc2c1)NCc1ccc(OP(=O)(O)O)cc1 the IC50 was 81000 nM (Signal transducer and activator of transcription 5A, SH2 (Homo sapiens, UniProt P42229); ligand displacement, FP).
The IC50 of O=C(NCC1CC1)c1ccccc1NC(=O)C(C(F)(F)F)C(F)(F)F is reported as 162000 nM (Chymotrypsinogen A; enzyme activity, inhibitor, fluorescence).
CCCCc1nc2c([nH]1)[C@H](O)[C@@H](O)[C@H](O)[C@H]2O has an IC50 of greater than 50000 nM (GBA2; HEK293 lysate overexpressing enzyme; pH 5.8, added: 4-MU-β-D-glucopyranoside).

Excerpt of the above:
With CN(C)c1ccc(/N=N/c2ccc(NC(=O)CN)cc2)cc1 the IC50 was 460 nM (IAPP (Homo sapiens, UniProt P10997); ThT displacement, ThT fluorescence; pH 7.4, preformed target-ThT complex, added: 5 µM ThT).
With O=C(Nc1ccc(F)c(Cl)c1)C(C(F)(F)F)C(F)(F)F the IC50 was 1200 nM (Chymotrypsinogen A; enzyme activity, inhibitor, fluorescence).
